# Results pooled from the literature.
# Each line is one published result; not all experiments were run side by side. ± marks the error that the study gave.
Structure (SMILES),target,assay,system,conditions,how to read,measurement,result
CNC(=O)c1ccccc1Oc1nc(Nc2cc(OC)c(OC)c(OC)c2)ncc1Br,human protein kinase panel,,,1 µM,inhibition above 25%,number of kinases inhibited,30
Cc1sc2ncn(CC(=O)N3CCCC3)c(=O)c2c1-c1ccc(Cl)cc1,NMDA receptor rat recombinant,"potentiator, voltage clamp",,"dose not given, added: sub-saturating agonists",baseline: control,current potentiation,≤ 8 fold
CC(C)c1cnc(-c2cc(Cl)ccc2F)cc1Nc1ccncc1C(=O)NC(CO)CO,TGF-β receptor type 1 (human),"SMAD2 Ser465/467 phosphorylation, inhibitor",human PBMC,"total drug, added: TGF-β",,IC50,0.151 ± 0.0206 µM
C=C(CC)C(=O)c1ccc(OCC(=O)NCCNC(=O)COc2ccc(C(=O)C(=C)CC)c(Cl)c2Cl)c(Cl)c1Cl,"glutathione S-transferase, human",enzyme activity,A549 cell lysate,0.2 µM,,inhibition,~70%
CO[C@@H]1[C@H](O)[C@@H](COP(=O)(O)OP(=O)([S-])OP(=O)(S)OC[C@H]2O[C@@H](n3cnc4c(=O)[nH]c(N)nc43)[C@H](O)[C@@H]2O)O[C@H]1n1c[n+](C)c2c(O)nc(N)nc21 (stereo partly drawn),Schizosaccharomyces pombe Dcp1/Dcp2,substrate,,"5 to 15 min, RNA capped with compound",,decapped RNA,10 to 30%
C=C(CC)C(=O)c1ccc(OCC(=O)NCCCCNC(=O)COc2ccc(C(=O)C(=C)CC)c(Cl)c2Cl)c(Cl)c1Cl,"glutathione S-transferase, human",enzyme activity,SGC-7901 cell lysate,0.2 µM,,inhibition,~80%
C[C@H](NC(=O)CNC(=O)[C@@H]1CSSC[C@H](NC(=O)[C@H](C)NC(=O)CN)C(=O)N[C@@H](CCCNC(=N)N)C(=O)N[C@@H](CCCNC(=N)N)C(=O)N[C@@H](CCC(=O)O)C(=O)N[C@@H]([C@@H](C)O)C(=O)N[C@@H](C)C(=O)N[C@@H](Cc2c[nH]c3ccccc23)C(=O)N[C@@H](C)C(=O)N1)C(=O)O,integrin alpha-v beta-1,cell attachment,"alpha-v beta-1-expressing cells, peptide coated on plastic",,,minimum coating concentration,1 mg/mL
COc1cc2nnn(C(=O)N3COCC3(C)C)c2cc1OC,carboxylesterases (rat),inhibitor,rat liver microsomes,10 µM,baseline: control,remaining activity,72 ± 5%
COC1CCC(Nc2nc(-c3nccn3C)nc3sc(-c4ccn(C)n4)c(-c4ccccc4)c23)C1 (stereo not drawn),Ras,"Ras-GTP formation, inhibitor, GTP pull-down",MIA PaCa-2,"6 h, added: EGF 15 min",,IC50,1 to 3 µM
COc1cc(/C=C/C(=O)OCCCC[P+](c2ccccc2)(c2ccccc2)c2ccccc2)ccc1O,"glutathione peroxidase, rat",,rat mitochondria,"10 µM, 15 and 30 min",,glutathione peroxidase activity,increased
CN(C)CCCNC(=O)c1cc(NC(=O)c2cc(NC(=O)c3cc(NC(=O)c4nc(NC(=O)[C@H](N)CCNC(=O)c5cc(NC(=O)c6cc(NC(=O)c7nc(NC(=O)c8nccn8C)cn7C)co6)cn5C)cn4C)cn3C)cn2C)cn1C,12-mer DNA duplex,"DNA binding, UV thermal denaturation",,"2.4 µM, pH 7.0, match base pair A·T, added: DNA duplex 2 µM",,melting temperature,76.6 ± 1.1 °C
CCCCN1C(=O)c2cccc3c(NCCCCCCN4CCOCC4)ccc(c23)C1=O,lysosomes,confocal lambda scanning,BHK-21,"0.2 µM, lysosomal micro-polarity",,emission maximum,524 nm
C[N+](C)(CF)CC(=O)O,TMA lyase,"TMA production, whole-cell","Proteus mirabilis, wild type",,,EC50,16 µM
COc1cc(CCC(C)=O)ccc1O,mAb 6-AT6,"antibody binding, indirect competitive ELISA",,added: coating antigen 5-OVA,,IC50,2.19 µg/mL
C[N+](C)(CF)CCO,TMA lyase,"TMA production, whole-cell","Proteus mirabilis, wild type",,,EC50,0.002 µM
CCCCC/C=C/C(=O)CCc1ccc(O)c(OC)c1,mAb 6-AT6,"antibody binding, indirect competitive ELISA",,added: coating antigen 4-OVA,,IC50,> 4 µg/mL
CC(=O)O[C@H]1C(=O)[C@]2(C)[C@@H](OC(=O)CCCNC(=O)c3cc4cc(F)c(O)c(F)c4oc3=O)C[C@H]3OC[C@@]3(OC(C)=O)[C@H]2[C@H](OC(=O)c2ccccc2)[C@]2(O)C[C@H](OC(=O)[C@H](O)[C@@H](NC(=O)c3ccccc3)c3ccccc3)C(C)=C1C2(C)C,microtubules,"binding, saturation binding flow cytometry",HeLa (living),1% FBS,,Kd,2 µM
Cc1ccc(NC(=O)c2c(C)oc3ccc(O)c(CN4CCCCCC4)c23)cc1,"mutant MYC Pu27 DNA, non-G4",PCR stop,,up to 100 µM,,PCR amplification,no effect
CC(=O)N[C@@H](CC(N)=O)C(=O)NCC(=O)N[C@@H](C)C(=O)N[C@@H](C)C(N)=O,Asn-Gly peptide isomerisation to succinimide,1H NMR time course,,"pH 7.4, 37 °C",,rate constant k1,0.027 h⁻¹
CN(C)CCCNC(=O)c1cc(NC(=O)c2cc(NC(=O)c3cc(NC(=O)c4nc(NC(=O)[C@H](N)CCNC(=O)c5cc(NC(=O)c6cc(NC(=O)c7nc(NC(=O)c8nccn8C)cn7C)cn6C)co5)cn4C)cn3C)cn2C)cn1C,12-mer DNA duplex,"DNA binding, UV thermal denaturation",,"2.4 µM, pH 7.0, match base pair T·A, added: DNA duplex 2 µM",,melting temperature,75.2 ± 1.5 °C
CC(=O)N[C@@H](CC(N)=O)C(=O)NCC(=O)N[C@@H](CCCNC(=N)N)C(=O)N[C@@H](C)C(N)=O,Asn-Gly peptide isomerisation to succinimide,1H NMR time course,,"pH 7.4, 46 °C",,rate constant k1,0.0535 h⁻¹
Cc1c(OCc2ccccc2)c(=O)ccn1CCCOC(=O)c1ccccc1[N+](=O)[O-],β-hematin formation,,,"200 µg/mL, 24 h, 60 °C",,inhibition,1%
NS(=O)(=O)c1ccc(-n2nc(C(F)(F)F)cc2-c2ccc(F)cc2F)cc1,dog COX-1 and COX-2,,dog whole blood,,baseline: IC50 COX-1 over COX-2,selectivity ratio,19.4
C[N+](C)(CI)CCO,TMA lyase,"TMA production, whole-cell","Proteus mirabilis, wild type",,,EC50,0.0015 µM
O=C(/C=C/c1ccc(O)c(O)c1)OCCCC[P+](c1ccccc1)(c1ccccc1)c1ccccc1,"glutathione peroxidase, rat",,rat mitochondria,"10 µM, 15 and 30 min",,glutathione peroxidase activity,increased
O=C1CO[C@H](CNC(=O)C2(c3ccc(Cl)cc3)CC2)CN1C1Cc2ccccc2C1,other chemokine receptors,β-arrestin recruitment,,1 µM,,activity,inactive
CCOc1ccc(-c2nc3cc(-c4nc5cc(N6CCN(C)CC6)ccc5[nH]4)ccc3[nH]2)cc1,HIV-1 nucleocapsid protein-RNA NC•SL3 complex,ESI-FTMS,,"0.35 to 17.5 µM, added to preformed complex",,NC-RNA complex dissociation,no effect
CN(C)CCCNC(=O)c1cc(NC(=O)c2cc(NC(=O)c3cc(NC(=O)c4nc(NC(=O)[C@H](N)CCNC(=O)c5cc(NC(=O)c6cc(NC(=O)c7nc(NC(=O)c8nccn8C)cn7C)co6)co5)cn4C)cn3C)cn2C)cn1C,12-mer DNA duplex,"DNA binding, UV thermal denaturation",,"2.4 µM, pH 7.0, mismatch base pair C·G, added: DNA duplex 2 µM",,melting temperature,69.1 ± 0.3 °C
CC(=O)N[C@@H](CC(C)C)C(=O)N[C@H](C(=O)N[C@@H](Cc1ccccc1)C(=O)N[C@]1(C)CCCCCCC=CCCC[C@@](C)(C(=O)N[C@@H](CO)C(=O)N[C@@H](C)C(=O)N[C@@H](C)C(N)=O)NC(=O)[C@H](CC2CCC2)NC(=O)[C@H](CCC(N)=O)NC(=O)[C@H](C)NC(=O)[C@H](Cc2c[nH]c3ccccc23)NC(=O)[C@H](Cc2ccc(O)cc2)NC(=O)[C@H](CCC(=O)O)NC1=O)[C@@H](C)O,p53,"reporter gene, activator",HCT-116 p53 reporter,"16 h, 2% FBS",,EC50,4.2 µM
Nc1c2[nH]nc3c2nc[n+]1[C@@H]1O[C@H](COP(=O)(O)OP(=O)([O-])OC[C@H]2O[C@@H]3[C@H](O)[C@@H]2O)[C@@H](O)[C@H]1O,cADPR receptor,"Ca2+ release, fura fluorimetry",permeabilised Jurkat T cells,concentration not given,,activity class,active
CN(C)CCCNC(=O)c1cc(NC(=O)c2cc(NC(=O)c3cc(NC(=O)c4nc(NC(=O)[C@H](N)CCNC(=O)c5cc(NC(=O)c6cc(NC(=O)c7nc(NC(=O)c8nccn8C)cn7C)cn6C)cn5C)cn4C)cn3C)cn2C)cn1C,12-mer DNA duplex,"DNA binding, UV thermal denaturation",,"2.4 µM, pH 7.0, match base pair T·A, added: DNA duplex 2 µM",,melting temperature,76.2 ± 2.3 °C
CC(CCC(=O)NCc1ccc(C(=O)NCc2ccc(C(=O)NO)cc2)cc1)C1CCC2C3C(O)CC4CC(O)CCC4(C)C3CCC12C (stereo not drawn),HDAC6,immunoblotting,cystic human cholangiocytes,"2 µM, 24 h",,acetylated α-tubulin level,increased
NC[C@@H]1O[C@H](O[C@H]2[C@@H](O)[C@H](O[C@@H]3[C@@H](O)[C@H](N)C[C@H](N)[C@H]3O[C@H]3O[C@H](CN)[C@@H](O)[C@H](O)[C@H]3N)O[C@@H]2CO)[C@H](N)[C@@H](O)[C@@H]1O,AT-rich DNA,FID,,,baseline: triplex over duplex,affinity ratio,2 to 3 orders of magnitude
